Results of several laboratories.
Every numbered part comes from another study and shows a few of its results, in no order.

Block 1
Target: Sal-like protein 4, full length isoform B (SALL4, Homo sapiens, UniProt Q9UJQ4-2, residues 1-616)
Method: universal PBM
Molecule type: double-stranded DNA, one strand shown
Medium: in vitro
Concentration: not given
Notes: 8-mer, flanks averaged, mean of replicates
Direction: higher = stronger binding
Construct (chain): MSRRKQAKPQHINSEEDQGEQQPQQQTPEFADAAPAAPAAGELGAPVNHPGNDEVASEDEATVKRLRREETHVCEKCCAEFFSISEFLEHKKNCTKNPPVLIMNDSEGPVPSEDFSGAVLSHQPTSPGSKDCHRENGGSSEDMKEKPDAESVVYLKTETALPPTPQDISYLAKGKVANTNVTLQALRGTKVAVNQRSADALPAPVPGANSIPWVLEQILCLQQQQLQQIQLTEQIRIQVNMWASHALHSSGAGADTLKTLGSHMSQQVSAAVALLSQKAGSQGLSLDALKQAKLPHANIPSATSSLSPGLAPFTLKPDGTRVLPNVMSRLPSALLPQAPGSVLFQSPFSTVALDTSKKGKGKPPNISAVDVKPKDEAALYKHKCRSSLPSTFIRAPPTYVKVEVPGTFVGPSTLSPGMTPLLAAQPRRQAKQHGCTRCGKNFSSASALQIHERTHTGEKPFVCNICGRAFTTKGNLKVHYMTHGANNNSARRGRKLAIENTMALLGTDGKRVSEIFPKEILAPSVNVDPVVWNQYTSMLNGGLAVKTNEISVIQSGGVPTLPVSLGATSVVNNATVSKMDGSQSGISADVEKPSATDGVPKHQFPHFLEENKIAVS
| Strand | E-score |
| --- | --- |
| AAGTTCCG | -0.0279 |
| CAAATAGG | 0.0453 |
| GTTGGTGA | -0.0978 |
| AAACCAAA | 0.119 |
| ATACTCGG | 0.0532 |
| ACTTACTC | 0.0305 |
| AATCCAGC | -0.132 |
| ATAGGTAA | 0.257 |
| CTACGGCC | -0.339 |
| TAGAGTAA | 0.15 |
| GCACTAGA | -0.0162 |
| ATGAAGCC | 0.0107 |
| ATTCCTGA | 0.0984 |
| GATGTCTA | 0.164 |
| GATCCCAC | -0.137 |
| AGACTAAT | 0.0939 |
| CATATGCA | 0.183 |

Block 2
Target: RNA binding protein fox-1 homolog 2, RRM domain, GST-SBP tag (RBFOX2, Homo sapiens, UniProt O43251-10, residues 100-194)
Method: RNA Bind-n-Seq
Molecule type: RNA
Medium: in vitro
Concentration: 365 nM
Notes: natural RNA segment, single round, ends assumed
Baseline: no-protein control
Direction: higher = stronger binding
Shared flanks, not repeated: GGGAGUUCUACAGUCCGACGAUC … UGGAAUUCUCGGGUGCCAA
Target sequence (chain): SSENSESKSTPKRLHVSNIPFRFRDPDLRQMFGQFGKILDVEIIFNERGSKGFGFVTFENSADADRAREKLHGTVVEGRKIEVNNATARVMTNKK
| Strand | RBNS enrichment (R) |
| --- | --- |
| UGUACUCCCCUUUGCUCCAUCAGUUAUCAGGAAGGAGAACUAAGGAGGGAGGAAGCUUAUUAGGUUCACUGUUGAAUGAUGAUUGAAGAGUACCUGCUGCUGUAUCUUGG | 1.5 |
| AACAAACCCUGAAAUGUAUAUUUGGGAUUAUGAUAAGGCAACUAAAGACAUGAAACCUCAGGUAUCCUGCUUUAAGUUGAUAACUCCCUCUGGGAGCUGGAGAAUCGCUC | 0.204 |
| UCCACUGACCCUUACAGAUGUAGGUAUACCCUUACUGGAGAGGGAACUCUGAUGAGGAGAUGCUGGUAAAUUAUCAUUUUUUAAAUUGCUGGUGAGUCUGACACUUGGUG | 0.495 |
| CCCUUUCUCUGCCCGCCUUUCCCAUCCUGCUGUAGACUUCUUGAUUGUCAGUCUGUGUCACAUCCAGUGAUUGUUUUGGUUUCUGUUCCCUUUCUGACUGCCCAAGGGGC | 3.43 |
| CAGAAGGACAUCCAAGCCUGCAAUGGCAGGUCACUAUUUACUUAAUAUUUCCACCUAUGGCAGGGGUACAGAGAACAUUAAAAGGACCCAUUCUGUAAAUCCUGAUGAUC | 0.591 |
| AAUACUCAAAGAAAGAAAAGUGGCAGCACUUAUAUUAGUUUUAUAACAGGAUAAAGUCUUGUGUAUAGCAAAGUAGUUGCAUCUGUUUAUUUUCUAUUUAUUAUUGUUAC | 0.463 |
| CCAGUAAUGGAAGUGUUAAUUUUACUGUACUUUUUGGUACCUUUUGGGAAUCUAAUGUAUUGUAAGGUAUUUUACACGUGUCCUGAUUUUGCCACGACCUGGAUAUUGAA | 0.379 |
| UCAUGCUUUUCACCUAAAUAGCAAUUUAAAUAUUUGAUGAGCUCUGAACAAACCCUGUAUCAAGUAUCUGAAAUUUAAGGAGAUCAAACAGACUGUGACCAAGGUCCUGU | 0.323 |

Block 3
Target: Ras GTPase-activating protein-binding protein 1, full length (G3BP1, Homo sapiens, UniProt Q13283)
Sequence of UniProt Q13283 (whole entry, looked up): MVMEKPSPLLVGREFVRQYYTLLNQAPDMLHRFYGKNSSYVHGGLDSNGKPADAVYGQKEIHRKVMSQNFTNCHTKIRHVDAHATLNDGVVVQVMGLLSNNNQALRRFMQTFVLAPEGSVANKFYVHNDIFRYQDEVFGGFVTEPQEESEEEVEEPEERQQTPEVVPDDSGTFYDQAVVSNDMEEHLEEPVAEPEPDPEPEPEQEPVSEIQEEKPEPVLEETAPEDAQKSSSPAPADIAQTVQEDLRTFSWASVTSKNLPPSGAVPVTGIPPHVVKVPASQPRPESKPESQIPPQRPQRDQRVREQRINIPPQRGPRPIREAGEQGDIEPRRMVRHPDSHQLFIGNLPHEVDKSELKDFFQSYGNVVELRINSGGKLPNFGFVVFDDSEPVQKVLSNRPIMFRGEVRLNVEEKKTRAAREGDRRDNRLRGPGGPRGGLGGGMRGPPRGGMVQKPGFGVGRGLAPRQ
Method: RNA Bind-n-Seq
Molecule type: RNA
Medium: in vitro
Concentration: 200 nM
Notes: whole 134-nt RNA, ends assumed
With: 150 mM LiCl
Baseline: input library
Direction: higher = stronger binding
Each molecule: 7-deaza-guanosine replaces G
Shared flanks, not repeated: GGGAGUUCUACAGUCCGACGAUC … UGGAAUUCUCGGGUGUCAAGG
| Strand | log2 enrichment |
| --- | --- |
| CAAGUCCUGUGCUACACAUCGUAUGUACCGAAUCGGAAAAAGGUUUUUUUGGAGGAAAGUAUUAUGUUACGCCGUUCGGAUCUGCACUUC | -1.35 |
| CAAGUCCUGUGCUACACAUCGUAUGUACCGAAUCGGGAAAAAAAGGGAGGGAGGGAAAGUAUUAUGUUACGCCGUUCGGAUCUGCACUUC | -0.243 |
| UGGCCCUGGUGGCAUGCGGGGAGGAAGAGGUGGCCUCAUGGAUCGUGGUGGUCCCGGAGGAAUGUUCAGAGGUGGCCGUGGUGGAGACAG | 0.0833 |
| UCCUGUGCUACACAUCGUAUGUACCGAAUCGGGAAAAAAGGGAAAAAAGGGGAAAAAAGGAAAGUAUUAUGUUACGCCGUUCGGAUCUGC | -0.267 |
| UCCUGUGCUACACAUCGUAUGUACCGAAUCGGGGUUUUUGGGGAAAAAAAGGGGAGGGGAAAGUAUUAUGUUACGCCGUUCGGAUCUGCA | 0.196 |
| UCCUGUGCUACACAUCGUAUGUACCGAAUCGGCCCCCCGGCCCCCCGGGGCCCCCCGGGAAAGUAUUAUGUUACGCCGUUCGGAUCUGCA | -0.199 |
| CACAGAGAACACGCACCCACACAGACACAGAGGGAAGGGGUUGGGAUGGGGACAGGGUGCACAGCAGGGCGGGGUAGGACCCCAGCCCCU | 0.578 |
| GCAGGAAGUAAAAACAAAUGGAAAUGCUUCGGAUAGUGGCAGGGGUGGGGGUUGCUACGGAAAGGGUGGGAUGGGAGUGGGUAAAGAGUU | 0.03 |

Block 4
Target: Histone acetyltransferase KAT6A, winged helix 2, GST fusion (KAT6A, Homo sapiens, UniProt Q92794, residues 85-181)
Method: protein binding microarray
Molecule type: double-stranded DNA, one strand shown
Medium: in vitro
Concentration: not given
Notes: 8-mer, flanks averaged, mean of 2 arrays, mostly near background
Baseline: not given
Direction: higher = stronger binding
Construct (chain): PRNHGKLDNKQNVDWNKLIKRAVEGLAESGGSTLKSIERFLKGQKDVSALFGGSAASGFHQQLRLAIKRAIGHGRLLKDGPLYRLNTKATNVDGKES
| Strand | E-score |
| --- | --- |
| CGGCCCGC | 0.198 |
| ATGGGCCA | 0.0469 |
| CGCAGCCG | 0.0656 |
| ACTAAAAC | -0.0711 |
| CCATGGGA | -0.137 |
| CGAATCGC | 0.132 |
| ACGTCAAG | -0.143 |
| ACCGGCGA | 0.146 |
| GCCATTGA | 0.0238 |
| CATGGGAG | -0.0523 |
| GCTGTTTA | -0.00038 |
| ACCATCTC | -0.0731 |
| AGTTGAGC | -0.0912 |
| TCTCGCCA | 0.00311 |
| ACTCGAGT | 0.0766 |
| CCAATAGG | -0.102 |
| CCAATTCA | -0.107 |
| CCACCATA | -0.024 |
| AGGACGCA | -0.0103 |
| TTAATAAA | 0.208 |
| GACGACAC | -0.0124 |
| CGGCCGTC | 0.0651 |
| CTGGTCAA | -0.00739 |
| CGGGATGA | 0.113 |
| ATAGAGCG | -0.0766 |

Repeated from above (block 1):
| Strand | E-score |
| --- | --- |
| ATAGGTAA | 0.257 |
| AAGTTCCG | -0.0279 |
| ACTTACTC | 0.0305 |
| GATGTCTA | 0.164 |
| AAACCAAA | 0.119 |
| GATCCCAC | -0.137 |
| GTTGGTGA | -0.0978 |
| CATATGCA | 0.183 |
